Assay results from different studies.
“And” joins repeats or separate records; there may be more than shown. ± gives the spread as reported.
CD274: Programmed cell death 1 ligand 1 (CD274, Homo sapiens, UniProt Q9NZQ7)
Chain of UniProt Q9NZQ7 (whole entry, looked up): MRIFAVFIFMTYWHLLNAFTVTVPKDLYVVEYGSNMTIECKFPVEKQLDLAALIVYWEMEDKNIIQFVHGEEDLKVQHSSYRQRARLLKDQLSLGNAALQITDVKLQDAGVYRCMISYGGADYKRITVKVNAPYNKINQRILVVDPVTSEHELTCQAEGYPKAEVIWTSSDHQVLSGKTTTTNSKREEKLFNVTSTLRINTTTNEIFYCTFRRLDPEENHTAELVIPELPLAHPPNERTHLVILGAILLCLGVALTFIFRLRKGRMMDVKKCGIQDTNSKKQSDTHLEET
TOP2A: DNA topoisomerase 2-alpha (TOP2A, Homo sapiens, UniProt P11388)
Chain of UniProt P11388 (whole entry, looked up): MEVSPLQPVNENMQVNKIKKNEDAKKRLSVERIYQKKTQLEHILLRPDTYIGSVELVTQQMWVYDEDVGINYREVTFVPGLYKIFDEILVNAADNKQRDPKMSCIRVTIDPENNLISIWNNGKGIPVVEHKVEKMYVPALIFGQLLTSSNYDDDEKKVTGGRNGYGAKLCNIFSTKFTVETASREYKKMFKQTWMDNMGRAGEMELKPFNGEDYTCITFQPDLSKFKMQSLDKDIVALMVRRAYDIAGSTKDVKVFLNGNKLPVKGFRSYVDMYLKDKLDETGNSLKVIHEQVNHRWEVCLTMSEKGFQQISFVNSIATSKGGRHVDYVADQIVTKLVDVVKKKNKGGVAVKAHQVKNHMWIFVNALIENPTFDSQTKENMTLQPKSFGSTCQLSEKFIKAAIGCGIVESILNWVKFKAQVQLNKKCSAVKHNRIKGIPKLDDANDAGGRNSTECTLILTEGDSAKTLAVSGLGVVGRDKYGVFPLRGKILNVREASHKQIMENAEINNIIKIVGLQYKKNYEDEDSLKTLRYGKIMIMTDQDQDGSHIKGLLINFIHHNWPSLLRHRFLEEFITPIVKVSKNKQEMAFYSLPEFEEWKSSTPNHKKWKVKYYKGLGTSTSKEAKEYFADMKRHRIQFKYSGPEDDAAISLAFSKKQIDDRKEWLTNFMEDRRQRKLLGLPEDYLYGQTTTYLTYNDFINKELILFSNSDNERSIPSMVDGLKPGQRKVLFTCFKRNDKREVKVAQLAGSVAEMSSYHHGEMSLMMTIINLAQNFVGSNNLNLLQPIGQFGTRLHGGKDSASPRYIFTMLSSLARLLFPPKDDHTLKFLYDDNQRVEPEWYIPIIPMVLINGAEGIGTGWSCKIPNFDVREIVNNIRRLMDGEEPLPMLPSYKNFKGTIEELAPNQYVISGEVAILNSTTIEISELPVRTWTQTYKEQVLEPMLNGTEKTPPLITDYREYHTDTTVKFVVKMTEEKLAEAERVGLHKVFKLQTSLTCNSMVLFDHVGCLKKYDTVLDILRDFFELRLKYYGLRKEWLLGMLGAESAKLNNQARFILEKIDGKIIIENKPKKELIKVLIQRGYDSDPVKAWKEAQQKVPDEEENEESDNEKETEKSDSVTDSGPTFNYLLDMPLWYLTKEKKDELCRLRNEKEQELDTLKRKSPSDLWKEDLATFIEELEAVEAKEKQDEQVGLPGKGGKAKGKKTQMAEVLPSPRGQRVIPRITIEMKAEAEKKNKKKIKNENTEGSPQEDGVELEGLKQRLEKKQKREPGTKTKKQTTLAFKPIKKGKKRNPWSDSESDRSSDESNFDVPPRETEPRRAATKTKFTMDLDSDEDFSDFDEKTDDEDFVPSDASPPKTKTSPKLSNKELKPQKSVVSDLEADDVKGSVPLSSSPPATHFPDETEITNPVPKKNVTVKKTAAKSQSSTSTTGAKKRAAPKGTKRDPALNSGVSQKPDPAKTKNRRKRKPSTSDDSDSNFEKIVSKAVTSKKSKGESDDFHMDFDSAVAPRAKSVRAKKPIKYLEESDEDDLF
IDE: Insulin-degrading enzyme (IDE, Homo sapiens, UniProt P14735)
BEST2: Bestrophin-2a (BEST2, Homo sapiens, UniProt Q8NFU1)
Chain of UniProt Q8NFU1 (whole entry, looked up): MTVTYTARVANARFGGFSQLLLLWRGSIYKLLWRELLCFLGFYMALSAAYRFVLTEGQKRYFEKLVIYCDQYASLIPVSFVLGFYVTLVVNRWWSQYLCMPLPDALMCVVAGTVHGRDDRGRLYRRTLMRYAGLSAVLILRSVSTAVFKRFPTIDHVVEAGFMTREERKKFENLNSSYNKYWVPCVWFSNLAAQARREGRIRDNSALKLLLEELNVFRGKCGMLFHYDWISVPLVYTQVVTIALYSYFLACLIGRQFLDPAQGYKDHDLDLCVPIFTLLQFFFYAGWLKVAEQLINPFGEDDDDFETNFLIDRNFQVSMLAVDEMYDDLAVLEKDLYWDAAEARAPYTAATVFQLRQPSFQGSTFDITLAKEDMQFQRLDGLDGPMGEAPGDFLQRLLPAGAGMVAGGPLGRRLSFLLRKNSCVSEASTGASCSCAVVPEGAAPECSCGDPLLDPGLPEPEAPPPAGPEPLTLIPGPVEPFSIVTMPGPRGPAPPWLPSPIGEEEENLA
T1: DNA junction; chain CGCAATCCTGAGCACG; chain CGTGCTCACCGAATGC; chain GCATTCGGACTATGGC; chain GCCATAGTGGATTGCG
Chain of UniProt Q64663 (whole entry, unmodified, looked up): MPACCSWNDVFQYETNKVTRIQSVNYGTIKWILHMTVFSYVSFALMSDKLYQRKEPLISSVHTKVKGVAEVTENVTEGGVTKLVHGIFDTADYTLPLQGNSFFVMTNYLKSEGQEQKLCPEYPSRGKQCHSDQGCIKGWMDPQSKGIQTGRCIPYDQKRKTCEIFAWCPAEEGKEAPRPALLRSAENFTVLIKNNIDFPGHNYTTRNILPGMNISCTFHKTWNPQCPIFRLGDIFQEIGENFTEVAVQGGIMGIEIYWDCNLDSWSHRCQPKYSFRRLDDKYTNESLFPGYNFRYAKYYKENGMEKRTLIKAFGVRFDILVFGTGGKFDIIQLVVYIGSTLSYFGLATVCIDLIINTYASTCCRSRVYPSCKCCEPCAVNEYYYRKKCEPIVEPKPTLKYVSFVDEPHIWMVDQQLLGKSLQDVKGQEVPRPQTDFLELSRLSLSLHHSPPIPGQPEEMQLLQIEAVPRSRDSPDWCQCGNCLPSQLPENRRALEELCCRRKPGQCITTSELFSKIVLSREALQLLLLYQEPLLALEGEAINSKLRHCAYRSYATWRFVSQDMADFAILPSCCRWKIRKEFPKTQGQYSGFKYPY
Chain of UniProt P51575 (whole entry, unmodified, looked up): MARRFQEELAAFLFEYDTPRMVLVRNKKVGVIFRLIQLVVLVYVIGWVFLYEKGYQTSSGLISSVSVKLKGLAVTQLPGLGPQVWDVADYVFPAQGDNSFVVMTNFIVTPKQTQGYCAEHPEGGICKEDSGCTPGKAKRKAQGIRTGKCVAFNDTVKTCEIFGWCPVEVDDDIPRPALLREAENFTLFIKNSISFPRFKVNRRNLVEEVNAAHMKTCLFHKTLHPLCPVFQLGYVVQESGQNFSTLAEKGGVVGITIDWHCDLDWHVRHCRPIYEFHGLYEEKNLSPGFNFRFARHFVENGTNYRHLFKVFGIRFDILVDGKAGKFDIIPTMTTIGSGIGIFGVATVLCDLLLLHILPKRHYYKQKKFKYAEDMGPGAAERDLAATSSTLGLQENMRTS
Chain of UniProt P18669 (whole entry, looked up): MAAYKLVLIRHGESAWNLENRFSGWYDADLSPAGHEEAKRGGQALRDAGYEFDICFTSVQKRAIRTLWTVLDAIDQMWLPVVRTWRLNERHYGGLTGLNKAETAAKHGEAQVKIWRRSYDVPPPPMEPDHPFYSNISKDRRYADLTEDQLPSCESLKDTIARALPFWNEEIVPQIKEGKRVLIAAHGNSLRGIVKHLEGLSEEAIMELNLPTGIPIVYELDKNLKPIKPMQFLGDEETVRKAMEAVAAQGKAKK
Chain of UniProt Q16774 (whole entry, unmodified, looked up): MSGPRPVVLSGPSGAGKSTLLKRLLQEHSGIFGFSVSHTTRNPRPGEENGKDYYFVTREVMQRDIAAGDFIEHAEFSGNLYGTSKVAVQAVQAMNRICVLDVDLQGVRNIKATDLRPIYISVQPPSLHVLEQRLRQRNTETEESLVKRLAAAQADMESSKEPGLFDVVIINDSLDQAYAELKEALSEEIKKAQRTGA
Chain of UniProt Q9EP73 (whole entry, looked up): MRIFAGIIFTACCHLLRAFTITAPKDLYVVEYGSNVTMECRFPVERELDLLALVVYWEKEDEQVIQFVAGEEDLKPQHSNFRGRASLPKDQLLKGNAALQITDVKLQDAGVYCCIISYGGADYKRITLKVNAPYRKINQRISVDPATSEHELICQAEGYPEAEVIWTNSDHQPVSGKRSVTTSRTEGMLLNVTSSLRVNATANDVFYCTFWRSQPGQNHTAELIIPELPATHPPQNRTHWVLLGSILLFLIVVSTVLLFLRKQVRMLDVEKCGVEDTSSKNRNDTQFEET
Chain of UniProt P10276 (whole entry, looked up): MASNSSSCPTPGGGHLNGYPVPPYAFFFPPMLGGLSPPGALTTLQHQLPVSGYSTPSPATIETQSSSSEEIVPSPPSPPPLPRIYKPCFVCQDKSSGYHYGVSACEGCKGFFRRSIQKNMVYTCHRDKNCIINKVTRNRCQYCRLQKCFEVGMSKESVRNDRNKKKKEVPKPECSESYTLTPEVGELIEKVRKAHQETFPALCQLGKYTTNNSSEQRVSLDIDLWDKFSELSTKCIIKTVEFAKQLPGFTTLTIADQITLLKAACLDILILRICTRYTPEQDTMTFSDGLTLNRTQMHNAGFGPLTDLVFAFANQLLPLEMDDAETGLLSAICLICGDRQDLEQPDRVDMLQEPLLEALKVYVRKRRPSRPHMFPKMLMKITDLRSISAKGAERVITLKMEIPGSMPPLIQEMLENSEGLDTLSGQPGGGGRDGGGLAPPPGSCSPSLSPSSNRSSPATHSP
Chain of UniProt P35396 (whole entry, looked up): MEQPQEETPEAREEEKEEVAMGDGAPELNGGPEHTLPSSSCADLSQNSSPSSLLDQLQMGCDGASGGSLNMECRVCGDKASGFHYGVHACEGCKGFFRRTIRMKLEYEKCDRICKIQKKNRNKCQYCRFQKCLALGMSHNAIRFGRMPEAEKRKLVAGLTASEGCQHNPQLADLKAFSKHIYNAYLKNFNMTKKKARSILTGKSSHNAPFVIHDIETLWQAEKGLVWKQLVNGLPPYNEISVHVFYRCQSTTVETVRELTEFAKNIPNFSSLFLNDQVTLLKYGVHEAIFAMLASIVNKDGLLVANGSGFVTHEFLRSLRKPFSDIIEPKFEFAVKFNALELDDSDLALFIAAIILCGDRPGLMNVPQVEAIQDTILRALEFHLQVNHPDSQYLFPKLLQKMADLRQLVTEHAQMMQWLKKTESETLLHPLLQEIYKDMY

`Cc1cc(Nc2nc(N[C@@H](C)c3ccc(F)cc3)c(C#N)cc2F)[nH]n1` gave a Hill slope of -0.718 (PKN1 (Homo sapiens, UniProt Q16512); inhibitor).
`Cc1c(COc2ccc(CN3CCCCC3C(=O)NCCCCCNC(=O)CN(C)CCCC34CCC(c5ccccc53)c3ccccc34)cc2Br)cccc1-c1ccccc1` (stereo not shown) has a degradation of 18.5 ± 1.5% (CD274; degrader, western blot; HL-60; 1 µM).
For `CC[C@@H](C)[C@@H](NC(=O)[C@@H](Cc1ccc(O)cc1)NC(=O)[C@H]1CCCN1C(=O)[C@@H](CCCNC(=N)N)NC(=O)[C@H](N)Cc1c[nH]cn1)C(=O)N[C@H](C)C(=O)N[C@H](Cc1c[nH]cn1)C(=O)N[C@H](CCCNC(=N)N)C(=O)N[C@@H](C(=O)N[C@H](Cc1ccc(O)cc1)C(=O)N[C@H](CO)C(=O)N[C@H](Cc1ccccc1)C(N)=O)C(C)C`, “PD-L1 blocking rate” read 12.1% and 6.14% and 18.9% (Programmed cell death 1 ligand 1, with PD-1 (Cd274, Mus musculus, UniProt Q9EP73); PD-1-Fc binding; B16; concentration not given, 48 h).
`CC[n+]1c(-c2ccccc2)c2cc(N)ccc2c2ccc(N)cc21` — result for binding: “binds” (T1, DNA junction; fluorescence enhancement; 20 °C, Mg2+ 12.5 mM, ethidium displacement).
`CC(=O)N[C@H](C(=O)N1C[C@H](O)C[C@H]1C(=O)NCc1ccc(-c2scnc2C)cc1)C(C)(C)SCCCCCCNC(=O)C[C@@H]1N=C(c2ccc(Cl)cc2)c2c(sc(C)c2C)-n2c(C)nnc21`: “ΔpKd ternary minus binary” 0.1 ± 0.2 (BRD2/VHL, BD1; with VCB (Homo sapiens, UniProt P25440+P40337); ternary complex binding, ITC; 25 °C, unit not given, with: VHL-ElonginB-ElonginC, PROTAC:Brd2^BD1; baseline: binary binding to VHL-ElonginB-ElonginC, positive = cooperative).
Under “log2 fold change”, `N#Cc1ccn2c(-c3ccncc3)c(-c3ccc(F)cc3)nc2c1` is recorded as -0.246 (Mitogen-activated protein kinase MKC1 (MKC1, Candida albicans, UniProt P43068); kinase binding, competitor, MIB/MS competition, measured: MKC1; Candida albicans cell lysate; 10 µM; baseline: DMSO).
Under “log fold enrichment”, `Cc1cccc(N2CC(C(=O)O)CC2=O)c1` (stereo not shown) is recorded as 0.0464 (DNA (cytosine-5)-methyltransferase 3A, PWWP domain (DNMT3A, Homo sapiens, UniProt Q9Y6K1); binding, affinity selection mass spectrometry; baseline: other proteins in batch).
The decatenated DNA of `O=c1nc(SCc2cc(F)cc(C(F)(F)F)c2)nc(SCc2nc3ccccc3[nH]2)[nH]1` is reported as 87.1% (TOP2A; decatenation; 15.6 µM, replicate 2).
For `CCCC(=O)Nc1ncnc2c1ncn2[C@@H]1O[C@@H]2COP(=O)(O)O[C@H]2[C@H]1O`, “relative binding affinity” read 0.0001 (anti-cGMP antibody; antibody binding, competitive cGMP EIA; concentration not given, acetylated samples; baseline: EC50 cGMP over EC50 cpd, higher = stronger binding).
`O=c1cc(-c2ccc(OS(=O)(=O)[O-])cc2)oc2cc(OS(=O)(=O)[O-])cc(OCc3cccc(COc4cc(OS(=O)(=O)[O-])cc5oc(-c6ccc(OS(=O)(=O)[O-])cc6)cc(=O)c45)n3)c12.[Na+].[Na+].[Na+].[Na+]` gave a Vmax of 38.6 ± 1 mAU/min (Neutrophil elastase (ELANE, Homo sapiens, UniProt P08246); 250 nM, with: chromogenic substrate).
The normalized current of `Nc1ncnc2c1ncn2[C@@H]1O[C@H](COP(=O)(O)OP(=O)(O)OP(=O)(O)O)[C@@H](O)[C@H]1O` is reported as 0.857 and 0.746 and 0.708 (P2X purinoceptor 7 (P2rx7, Rattus norvegicus, UniProt Q64663, R125A); ion current, agonist, two-electrode voltage clamp; Xenopus laevis oocytes; 166.7 µM; baseline: highest concentration response).
With `CCOC(=O)C1=C(CN2CCc3ccccc32)NC(=O)NC1c1ccccc1OC(F)F` (stereo not shown) the SPR response was 10.4 RU (AASS, SDH domain (Homo sapiens, UniProt Q9UDR5); binding, surface plasmon resonance; 5 µM).
Under “log2 fold change”, `CCN1CCC[C@H]1CNC(=O)c1c(O)c(Cl)cc(Cl)c1OC` is recorded as 0.013 (GPER1 (Homo sapiens, UniProt Q99527); β-arrestin recruitment, TANGO luminescence, measured: GPER; concentration not given; baseline: basal luminescence).
`Oc1c(Br)cc(Oc2ccc(Br)cc2Br)cc1Br` has a Vmax/Km of 957 µL/min/mg (SULT1E1 (Homo sapiens, UniProt P49888); sulfonation, substrate).
The EC50 of `Cc1cc(C)cc(-c2ccc([C@@H]3[C@@H](CO)N4CCCCN(S(=O)(=O)c5ccccc5C)C[C@@H]34)cc2)c1` is reported as 0.061 µM (IDE; enzyme activity, inhibitor, fluorescence kinetic; with: Mca-RPPGFSAFK(Dnp)-OH substrate).
For `Oc1ccc(/C=C/c2cc(O)cc(O)c2)cc1`, the viability was 108% (HBL-1; 0.5 µM, 120 h).
`Nc1ncnc2c1ncn2[C@@H]1O[C@H](COP(=O)(O)CP(=O)(O)OP(=O)(O)O)[C@@H](O)[C@H]1O` has a calcium influx of 2.95% and 0% and 3.44% (P2X purinoceptor 1 (P2RX1, Homo sapiens, UniProt P51575, L218T); calcium influx; 10 nM; baseline: ionomycin response).
For `[O-][S+]1CCCCS1` (stereo not shown), “SOD1 dimer fraction” read 100% (SOD1 (Homo sapiens, UniProt P00441, G94A); LC-MS; brain homogenate; 1000 µM, 1 h, 37 °C).
`CCOc1ccc(NC(=O)O[C@@H](Cn2nc(C(C)C)cc2C(C)C)C(C)C)cc1`: “increase in ACh efficacy” about 10 fold (Neuronal acetylcholine receptor; alpha4/beta2, (α4)2(β2)3 stoichiometry (Homo sapiens, UniProt P17787+P43681); two-electrode voltage clamp; Xenopus oocytes; 1 µM, high-sensitivity stoichiometry).
`Cc1nc(CSc2nc(SCc3ccc(C(F)(F)F)cc3)nc(=O)[nH]2)cs1` gave a decatenated DNA of 88.9% (TOP2A; decatenation; 15.6 µM, replicate 2).
`COc1ccc(C(=O)/C=C/c2cccc(-c3cccc(-c4ccc(CNCCN)c(OC)n4)c3C)c2)cc1` has a degradation of under 5% (CD274; degrader, western blot; HL-60; 1 µM).
`O=C(c1ccccn1)N1CC(=O)N2[C@@H](CO)[C@@H](c3ccc(C#Cc4ccccc4)cc3)[C@@H]2C1` has an EC50 of 5.2 µM (IDE; enzyme activity, inhibitor, fluorogenic kinetic; with: Mca-RPPGFSAFK(Dnp)-OH substrate).
`O=c1nc(SCc2cc(F)cc(C(F)(F)F)c2)nc(SCc2ccc3ncsc3c2)[nH]1` has a decatenated DNA of 69.2% (TOP2A; decatenation; 31.25 µM, replicate 1).
`O=C(O)c1ccc(O)cc1` gave a current density of 30.2 pA/pF and 38.6 pA/pF and 42.3 pA/pF and 52.5 pA/pF and 23.5 pA/pF and 20.7 pA/pF and 39.5 pA/pF (BEST2; whole-cell patch clamp; HEK293 transiently expressing channel; concentration not given, membrane potential 20 mV).
`CCC(NC(C)C)C(O)c1ccc(O)c2[nH]c(=O)ccc12` (stereo not shown) has a Hill coefficient of 0.7 (Beta-2 adrenergic receptor, V2R C-tail fusion (ADRB2, Homo sapiens, UniProt P07550); β-arrestin recruitment, agonist, Tango, measured: Cerulean; HEK293).
For `Nc1ccc(C(=O)O)cc1`, the current density was 95.1 pA/pF and 37.7 pA/pF and 155 pA/pF and 120 pA/pF and 134 pA/pF and 74.9 pA/pF (BEST2; whole-cell patch clamp; HEK293 transiently expressing channel; concentration not given, membrane potential 40 mV).
For `CCOCc1nc(O)c(-c2nnc(Cc3ccc(Cl)cn3)o2)c(O)c1-c1c(OC)cccc1OC`, the Emax was 115 ± 18% (Apelin receptor (APLNR, Homo sapiens, UniProt P35414); Gαi3 activation, agonist, BRET biosensor; HEK293).
With `Cc1c(COc2ccc(CN3CCCCC3C(=O)O)cc2Br)cccc1-c1ccccc1` (stereo not shown) the protein level was 0.982 and 0.762 and 0.962 (Cd274 (Mus musculus, UniProt Q9EP73); western blot; mouse B16-F10 tumour, tumour; intravenous, dose not given, unit not given; baseline: control).
Under “log2 fold change”, `c1coc(-c2n[nH]cc2-c2ccnc3ccccc23)c1` is recorded as -0.55 (Casein kinase I HRR25 (Candida albicans, UniProt Q59S64); kinase binding, MIB/MS competition; Candida albicans lysate; 10 µM; baseline: DMSO, negative = stronger binding).
With `O=C(O)CCCc1cc2cc(Cl)ccc2n1S(=O)(=O)c1ccc2ncsc2c1` the Emax was 53% (Ppard (Mus musculus, UniProt P35396); reporter gene, agonist, luciferase reporter; mouse; baseline: maximal control activation).
`CCOC(=O)C1CCN(C(=O)c2ccc(N(C)Cc3cnc4nc(N)nc(N)c4n3)cc2)CC1` gave a partition index of 0.92 (Pteridine reductase 1 (Leishmania major, UniProt Q01782); hDHFR weight 10; baseline: LmPTR1, LmDHFR over hDHFR, 1.0 selective, 0.0 non-selective).
The remaining activity of `C=CC(=O)N1CCC[C@@H](n2nc(-c3ccc(Oc4ccccc4)cc3)c3c(N)ncnc32)C1` is reported as 67.9% (PTK6 (Homo sapiens, UniProt Q13882); 1 µM).
`COc1cccc2c(-c3ccc(C)cc3)cc(C(=O)Nc3ccc(C(=O)O)cc3)nc12` — result for IC50: “inactive” (RARB (Homo sapiens, UniProt P10826); reporter gene, antagonist; up to 3300 nM, with: ATRA 4 nM (EC80)).
With `COc1cc(O)c2c(c1)oc(=O)c1c3cc(O)c(O)cc3oc21` the β-Sheet content was 42.8% (MAL12 (Saccharomyces cerevisiae S288c, UniProt P53341); circular dichroism; molar ratio 1:2).
For `CN1CCN(c2cc(-c3ccncc3)c(-c3ccc4ccccc4c3)nn2)CC1`, the activation was 0.9% (FPR1 (Homo sapiens, UniProt P21462); agonist, FLIPR; 12.5 µM).
`CC(C)(NCCCc1ccc(C(F)(F)F)c(Cl)c1)c1cccc(NC2=CC(=O)N(C3CCC(=O)NC3=O)C2=O)c1` (stereo not shown) gave a Dmax of 84% (Cereblon/Ikaros (Homo sapiens, UniProt Q13422+Q96SW2); protein degradation, degrader, HiBiT luminescence; Jurkat).
`CCN1CCN(c2cc(N3CCN(CC)CC3)nc(NCCNc3ccnc4cc(Cl)ccc34)n2)CC1` has an activation of 1.6 fold (RARA (Homo sapiens, UniProt P10276); reporter gene, Gal4 hybrid reporter; 20 µM; baseline: vehicle).
`Cc1nc(CSc2nc(SCc3cc(F)cc(C(F)(F)F)c3)nc(=O)[nH]2)cs1` has a decatenated DNA of 90.9% (TOP2A; decatenation; 7.8 µM, replicate 2).
`O=P(O)(O)O[C@H]1O[C@H](CO)[C@@H](O)[C@H](O)[C@H]1O` has an enzyme activity of 99.4% and 88.5% and 104% (Phosphoglycerate mutase 1 (Homo sapiens, UniProt P18669); activator, sugar phosphate screen; concentration not given; baseline: untreated control).
For `CC(C)(Oc1ccc(Cl)cc1)C(=O)O`, the EC10 was 11.3 µM (PPARG (Homo sapiens, UniProt P37231); reporter gene, agonist, β-lactamase reporter; HEK293-H cells; 24 h, nominal concentration; baseline: 10% of rosiglitazone maximum effect).
`COc1ncc(CNc2c(CO)cnc3c(C4CC4)cc(C#N)cc23)cc1Cl` has a selectivity ratio of over 10 (PDE2A (Homo sapiens, UniProt O00408); baseline: IC50 PDE2A over PDE5).
`C[C@@H]1C[C@H](Nc2ccccc2)c2cc(F)ccc2N1C(=O)c1ccc(C(F)(F)F)nc1` has a pIC50 Z-score of 0.14 (Ecdysone receptor (Aedes albopictus, UniProt Q9U3Y4); ligand binding, inhibitor; intact cells; with: [3H]ponasterone A; direction not given).
With `Nc1nc2c(ncn2[C@@H]2O[C@H](COP(=O)(O)O)[C@@H](O)[C@H]2O)c(=O)[nH]1` the reaction rate was 4.23 s⁻¹ and 1.34 s⁻¹ and 3.96 s⁻¹ (GUK1 (Homo sapiens, UniProt Q16774, S37A); enzyme activity, NADH-coupled; 500 µM).
